Assay results pooled from the literature.
Lines come from different studies, so protocols differ. ± gives the spread as reported.
ABCB1: ATP-dependent translocase ABCB1 (ABCB1, Homo sapiens, UniProt P08183)
CYP2D6: Cytochrome P450 2D6 (CYP2D6, Homo sapiens, UniProt P10635)
AHR: Aryl hydrocarbon receptor (AHR, Homo sapiens, UniProt P35869)
CYP2C9: Cytochrome P450 2C9 (CYP2C9, Homo sapiens, UniProt P11712)
ALDH1A2: Retinal dehydrogenase 2 (ALDH1A2, Homo sapiens, UniProt O94788)
KCNH2: Voltage-gated inwardly rectifying potassium channel KCNH2 (KCNH2, Homo sapiens, UniProt Q12809)

Protein sequences, listed by entry. Tags and fused reporters are not part of them. Residues count along the entry.
UniProt P08183, whole entry: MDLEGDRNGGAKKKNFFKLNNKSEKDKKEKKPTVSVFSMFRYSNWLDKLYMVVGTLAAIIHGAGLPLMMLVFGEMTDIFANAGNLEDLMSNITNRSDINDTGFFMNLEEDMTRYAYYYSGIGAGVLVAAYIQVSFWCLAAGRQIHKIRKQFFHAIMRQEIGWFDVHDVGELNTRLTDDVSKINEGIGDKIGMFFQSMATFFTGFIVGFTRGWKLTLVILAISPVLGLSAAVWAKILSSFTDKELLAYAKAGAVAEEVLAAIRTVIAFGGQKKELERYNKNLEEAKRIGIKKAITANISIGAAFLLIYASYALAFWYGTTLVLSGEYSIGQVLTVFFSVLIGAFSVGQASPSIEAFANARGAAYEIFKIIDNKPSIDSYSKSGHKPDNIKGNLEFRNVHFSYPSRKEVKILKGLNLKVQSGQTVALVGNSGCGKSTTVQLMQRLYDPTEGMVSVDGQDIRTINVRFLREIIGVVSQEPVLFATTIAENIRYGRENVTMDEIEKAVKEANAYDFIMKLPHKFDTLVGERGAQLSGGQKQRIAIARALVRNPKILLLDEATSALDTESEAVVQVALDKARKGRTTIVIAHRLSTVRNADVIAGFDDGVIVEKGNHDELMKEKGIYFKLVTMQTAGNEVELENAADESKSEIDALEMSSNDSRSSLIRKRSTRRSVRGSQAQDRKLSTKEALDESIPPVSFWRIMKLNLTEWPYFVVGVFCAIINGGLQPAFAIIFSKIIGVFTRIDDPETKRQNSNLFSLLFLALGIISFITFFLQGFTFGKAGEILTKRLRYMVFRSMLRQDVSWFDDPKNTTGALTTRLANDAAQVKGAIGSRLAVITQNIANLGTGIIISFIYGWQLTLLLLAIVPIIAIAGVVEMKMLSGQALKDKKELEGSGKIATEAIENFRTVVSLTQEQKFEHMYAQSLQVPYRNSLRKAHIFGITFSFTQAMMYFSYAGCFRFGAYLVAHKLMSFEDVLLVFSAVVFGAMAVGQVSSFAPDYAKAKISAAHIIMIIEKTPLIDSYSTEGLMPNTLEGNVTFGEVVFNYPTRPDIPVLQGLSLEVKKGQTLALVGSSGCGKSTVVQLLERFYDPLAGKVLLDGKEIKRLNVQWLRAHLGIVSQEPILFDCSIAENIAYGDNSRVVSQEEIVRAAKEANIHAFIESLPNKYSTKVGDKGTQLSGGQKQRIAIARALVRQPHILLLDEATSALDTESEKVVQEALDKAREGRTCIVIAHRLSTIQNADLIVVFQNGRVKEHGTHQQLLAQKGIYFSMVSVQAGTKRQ
UniProt P10635, whole entry: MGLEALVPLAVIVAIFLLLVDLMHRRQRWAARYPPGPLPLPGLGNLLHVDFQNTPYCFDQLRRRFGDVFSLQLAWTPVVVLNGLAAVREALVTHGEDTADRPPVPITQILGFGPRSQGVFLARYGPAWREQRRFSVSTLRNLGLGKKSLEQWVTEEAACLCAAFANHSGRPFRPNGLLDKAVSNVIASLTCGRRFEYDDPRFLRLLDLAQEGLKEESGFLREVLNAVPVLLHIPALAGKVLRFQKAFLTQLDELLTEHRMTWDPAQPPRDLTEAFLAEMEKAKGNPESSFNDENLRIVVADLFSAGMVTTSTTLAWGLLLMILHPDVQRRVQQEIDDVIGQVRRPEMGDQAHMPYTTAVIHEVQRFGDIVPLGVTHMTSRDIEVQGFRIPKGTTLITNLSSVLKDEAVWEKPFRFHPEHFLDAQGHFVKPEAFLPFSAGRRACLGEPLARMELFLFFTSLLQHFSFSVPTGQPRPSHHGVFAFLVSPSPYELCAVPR
UniProt P35869, whole entry, looked up: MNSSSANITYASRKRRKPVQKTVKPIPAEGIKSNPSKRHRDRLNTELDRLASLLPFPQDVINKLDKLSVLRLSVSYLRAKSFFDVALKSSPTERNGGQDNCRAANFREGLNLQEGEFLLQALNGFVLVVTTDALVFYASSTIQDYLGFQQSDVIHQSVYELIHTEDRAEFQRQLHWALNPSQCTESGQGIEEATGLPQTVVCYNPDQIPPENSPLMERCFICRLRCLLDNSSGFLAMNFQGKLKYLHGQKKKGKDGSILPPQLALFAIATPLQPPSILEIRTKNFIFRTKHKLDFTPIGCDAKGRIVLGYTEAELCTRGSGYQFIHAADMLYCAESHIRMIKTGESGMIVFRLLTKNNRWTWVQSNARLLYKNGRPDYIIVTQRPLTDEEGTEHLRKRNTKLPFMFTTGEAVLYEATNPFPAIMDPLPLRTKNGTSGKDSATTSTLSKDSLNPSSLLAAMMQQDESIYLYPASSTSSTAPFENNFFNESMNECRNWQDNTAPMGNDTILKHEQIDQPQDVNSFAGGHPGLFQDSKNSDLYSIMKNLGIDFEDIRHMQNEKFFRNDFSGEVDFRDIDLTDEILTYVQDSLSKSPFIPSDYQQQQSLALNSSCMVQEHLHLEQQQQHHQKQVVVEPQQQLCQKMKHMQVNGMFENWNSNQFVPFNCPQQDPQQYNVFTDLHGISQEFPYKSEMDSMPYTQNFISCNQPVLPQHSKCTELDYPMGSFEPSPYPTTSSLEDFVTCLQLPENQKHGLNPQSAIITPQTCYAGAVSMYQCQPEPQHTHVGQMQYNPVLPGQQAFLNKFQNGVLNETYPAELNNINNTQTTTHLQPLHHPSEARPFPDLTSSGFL
UniProt P11712, whole entry: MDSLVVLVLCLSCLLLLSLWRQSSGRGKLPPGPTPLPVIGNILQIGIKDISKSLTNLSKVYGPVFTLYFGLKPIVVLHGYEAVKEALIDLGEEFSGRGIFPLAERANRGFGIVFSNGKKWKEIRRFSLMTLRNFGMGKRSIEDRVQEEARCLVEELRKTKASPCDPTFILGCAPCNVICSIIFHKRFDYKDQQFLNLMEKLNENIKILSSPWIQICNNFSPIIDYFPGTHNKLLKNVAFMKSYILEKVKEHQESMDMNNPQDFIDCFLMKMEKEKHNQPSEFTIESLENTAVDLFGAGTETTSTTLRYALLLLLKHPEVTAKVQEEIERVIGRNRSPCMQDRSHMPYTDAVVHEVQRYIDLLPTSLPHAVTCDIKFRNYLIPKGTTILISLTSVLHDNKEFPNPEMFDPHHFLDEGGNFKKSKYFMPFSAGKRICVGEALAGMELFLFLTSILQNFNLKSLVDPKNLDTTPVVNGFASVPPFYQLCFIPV
UniProt O94788, whole entry: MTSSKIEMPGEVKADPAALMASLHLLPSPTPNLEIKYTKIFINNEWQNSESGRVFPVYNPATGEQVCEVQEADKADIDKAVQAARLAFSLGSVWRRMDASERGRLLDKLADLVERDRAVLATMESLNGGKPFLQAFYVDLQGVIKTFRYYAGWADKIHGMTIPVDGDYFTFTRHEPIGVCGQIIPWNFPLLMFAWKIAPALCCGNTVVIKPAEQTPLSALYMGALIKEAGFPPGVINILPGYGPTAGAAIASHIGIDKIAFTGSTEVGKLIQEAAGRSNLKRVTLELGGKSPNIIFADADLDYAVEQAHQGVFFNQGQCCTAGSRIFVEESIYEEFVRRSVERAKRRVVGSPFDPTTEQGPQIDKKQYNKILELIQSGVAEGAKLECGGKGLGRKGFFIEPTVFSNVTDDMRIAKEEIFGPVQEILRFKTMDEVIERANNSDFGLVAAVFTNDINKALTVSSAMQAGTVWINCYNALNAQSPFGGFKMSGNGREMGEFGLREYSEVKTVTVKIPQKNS
UniProt Q12809, whole entry: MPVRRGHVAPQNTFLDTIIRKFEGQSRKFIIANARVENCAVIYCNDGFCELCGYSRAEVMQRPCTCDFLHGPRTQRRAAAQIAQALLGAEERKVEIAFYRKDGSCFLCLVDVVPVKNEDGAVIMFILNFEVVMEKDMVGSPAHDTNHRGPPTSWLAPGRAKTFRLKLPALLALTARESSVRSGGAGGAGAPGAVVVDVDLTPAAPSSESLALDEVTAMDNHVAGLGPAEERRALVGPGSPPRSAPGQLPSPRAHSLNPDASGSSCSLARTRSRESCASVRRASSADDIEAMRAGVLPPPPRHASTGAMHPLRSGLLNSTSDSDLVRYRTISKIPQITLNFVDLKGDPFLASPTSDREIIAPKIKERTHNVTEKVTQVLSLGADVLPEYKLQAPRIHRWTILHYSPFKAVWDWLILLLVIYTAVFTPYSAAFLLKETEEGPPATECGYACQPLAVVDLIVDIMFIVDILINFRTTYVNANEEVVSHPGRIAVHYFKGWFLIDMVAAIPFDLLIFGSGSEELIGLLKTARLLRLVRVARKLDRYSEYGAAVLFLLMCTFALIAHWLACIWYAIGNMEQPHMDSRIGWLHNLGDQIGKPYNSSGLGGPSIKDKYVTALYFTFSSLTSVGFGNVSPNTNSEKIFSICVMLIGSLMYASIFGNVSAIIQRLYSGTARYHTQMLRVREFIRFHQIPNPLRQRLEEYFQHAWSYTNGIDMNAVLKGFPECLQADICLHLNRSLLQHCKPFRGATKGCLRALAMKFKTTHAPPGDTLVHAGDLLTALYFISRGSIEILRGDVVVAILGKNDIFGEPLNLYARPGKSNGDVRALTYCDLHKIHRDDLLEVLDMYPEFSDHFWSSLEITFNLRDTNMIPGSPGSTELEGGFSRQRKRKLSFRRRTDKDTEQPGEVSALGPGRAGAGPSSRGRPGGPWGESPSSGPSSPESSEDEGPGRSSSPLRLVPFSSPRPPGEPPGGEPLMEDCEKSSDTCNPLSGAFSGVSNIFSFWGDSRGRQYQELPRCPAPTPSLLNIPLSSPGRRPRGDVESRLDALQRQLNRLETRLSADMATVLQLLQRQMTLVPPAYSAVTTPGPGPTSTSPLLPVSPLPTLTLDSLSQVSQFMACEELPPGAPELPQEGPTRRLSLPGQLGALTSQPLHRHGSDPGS
UniProt P00176, whole entry: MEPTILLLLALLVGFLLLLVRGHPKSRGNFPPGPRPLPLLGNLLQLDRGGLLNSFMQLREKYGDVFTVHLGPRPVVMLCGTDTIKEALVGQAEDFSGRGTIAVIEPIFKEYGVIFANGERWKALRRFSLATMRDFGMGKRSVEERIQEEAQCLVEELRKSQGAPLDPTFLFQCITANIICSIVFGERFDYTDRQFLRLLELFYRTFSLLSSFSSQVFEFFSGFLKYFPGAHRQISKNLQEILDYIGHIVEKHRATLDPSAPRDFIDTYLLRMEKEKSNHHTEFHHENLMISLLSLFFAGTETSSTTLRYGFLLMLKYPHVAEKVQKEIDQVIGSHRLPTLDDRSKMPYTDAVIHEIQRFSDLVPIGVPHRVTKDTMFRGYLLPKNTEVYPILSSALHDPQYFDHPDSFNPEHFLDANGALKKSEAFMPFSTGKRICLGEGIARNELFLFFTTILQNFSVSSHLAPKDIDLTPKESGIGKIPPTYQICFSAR
UniProt Q51714, 1-616: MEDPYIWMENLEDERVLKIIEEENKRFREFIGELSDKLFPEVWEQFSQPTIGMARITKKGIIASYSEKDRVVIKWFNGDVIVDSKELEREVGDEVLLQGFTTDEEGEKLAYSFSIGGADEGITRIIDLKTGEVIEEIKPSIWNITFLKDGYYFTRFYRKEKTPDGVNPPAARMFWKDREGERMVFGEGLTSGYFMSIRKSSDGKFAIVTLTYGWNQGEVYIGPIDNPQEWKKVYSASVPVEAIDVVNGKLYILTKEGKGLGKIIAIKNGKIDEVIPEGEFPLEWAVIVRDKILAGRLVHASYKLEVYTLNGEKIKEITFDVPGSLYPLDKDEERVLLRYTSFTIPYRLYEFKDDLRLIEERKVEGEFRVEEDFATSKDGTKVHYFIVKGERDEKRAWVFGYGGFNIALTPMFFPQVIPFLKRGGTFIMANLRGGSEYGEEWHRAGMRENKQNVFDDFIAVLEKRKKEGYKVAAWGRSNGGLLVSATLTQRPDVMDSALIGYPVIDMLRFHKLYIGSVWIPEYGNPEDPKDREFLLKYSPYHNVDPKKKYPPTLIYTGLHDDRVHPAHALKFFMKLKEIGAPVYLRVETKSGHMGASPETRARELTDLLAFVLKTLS

| Compound | target | assay | test system | conditions | scale | measurement | result |
| --- | --- | --- | --- | --- | --- | --- | --- |
| C[N+](C)=c1ccc2c(-c3ccccc3)c3ccc(N)cc3sc-2c1 | ABCB1 | ATPase activity, activator | sheep brain phosphatidylethanolamine | 30 min, 37 °C | reference: basal activity | Vmax | 7.5 ± 1.5 fold |
| Cc1cccc(NC(=O)C2CC3CCC2C3)c1C (stereo not shown) | CYP2D6 | enzyme activity, inhibitor |  |  |  | IC50 | 22.2 µM |
| COC(=O)c1ccc(C(=O)c2c[nH]c3ccccc23)cn1 | AHR | reporter gene, agonist | HepG2 transfected XRE-luciferase | 4.5 h |  | EC50 | 3.87 µM |
| Cc1n[nH]c(C)c1CCOC(=O)c1cccc2c1oc(=O)n2C | CYP2C9 | inhibitor |  | 10 µM |  | inhibition | 10.1% |
| Oc1c(Cl)cccc1CNc1nc2ccccc2n1CC1CC1 | ALDH1A2 | enzyme activity, inhibitor, NADH absorbance 340 nm |  | pH 7.5, 25 °C, 200 µM NAD+, with: 100 µM propionaldehyde |  | EC50 | 0.39 ± 0.084 µM |
| NCCNC(=O)c1cc2c([nH]c3ccccc32)c(-c2ccc(C(F)(F)F)cc2)n1 | KCNH2 | ion current, inhibitor |  |  |  | IC50 | 4.4 µM |
| OCC1Nc2ccc(Cl)cc2C(C#CC2CC2)(C(F)(F)F)O1 (stereo not shown) | Cytochrome P450 2B1 (Cyp2b1, Rattus norvegicus, UniProt P00176) | substrate, cDNA-expressed enzyme with cytochrome b5 |  | 10 µM, 30 min, with: 10 nM enzyme | reference: rat CYP2B1 over human CYP2B6 | metabolite formation ratio | < 2 fold |
| CN(C)c1ccc2c(-c3ccc(C(=O)O)s3)c3ccc(=[N+](C)C)cc-3[te]c2c1 | ABCB1 | ATPase activity, substrate |  | half-maximal ATPase stimulation |  | Km | 9.6 ± 1.1 µM |
| COc1ccc(NC(=O)CN2CCCN(S(=O)(=O)c3ccc(C)cc3)CC2)c(OC)c1 | CYP2C9 | enzyme activity, inhibitor |  |  |  | IC50 | 2.3 µM |
| CC(C)c1ccc(NC(=O)C2CC3CCC2C3)cc1 (stereo not shown) | CYP2C9 | enzyme activity, inhibitor |  |  |  | IC50 | 27 µM |
| CC(=O)Nc1ccc2c3c(cccc13)C(=O)N(CCCCCCN1CCN(CCCCN3C(=O)CN(/N=C/c4ccc(-c5ccc(Cl)cc5)o4)C3=O)CC1)C2=O | KCNH2 |  |  |  |  | Ki | 0.698 µM |
| COc1ccc(NC(=O)CN2CCCN(S(=O)(=O)c3cccs3)CC2)c(OC)c1 | CYP2C9 | enzyme activity, inhibitor |  |  |  | IC50 | 2.6 µM |
| Cc1ccc(NC(=O)C2CC3CCC2C3)cc1 (stereo not shown) | CYP2C9 | enzyme activity, inhibitor |  |  |  | IC50 | > 30 µM |
| O=C1CN(/N=C/c2ccc(-c3ccc(Cl)cc3)o2)C(=O)N1CCCCN1CCN(CCN2C(=O)c3cccc4cccc(c34)C2=O)CC1 | KCNH2 |  |  |  |  | Ki | 0.027 µM |
| COc1ccc(CC(=O)OCc2ccc(-n3cccn3)cc2)cc1F | KCNH2 | potassium current, inhibitor |  |  |  | IC50 | > 50 µM |
| COc1ccc(NC(=O)CN2CCCN(S(=O)(=O)c3ccccc3)CC2)c(OC)c1 | CYP2D6 | enzyme activity, inhibitor |  |  |  | IC50 | > 20 µM |
| c1ccc(-c2ccccn2)nc1 | prolyl oligopeptidase (Pyrococcus furiosus, UniProt Q51714) | non-covalent binding, luminescence lifetime | water | concentration not given | reference: free over bound cofactor | luminescence lifetime change | 86 ns |
| Cc1ccc(NC(=O)C2CC3CCC2C3)c(C)c1 (stereo not shown) | CYP2D6 | enzyme activity, inhibitor |  |  |  | IC50 | > 30 µM |
| COc1cnc(C(=O)c2c[nH]c3ccccc23)cn1 | AHR | reporter gene, agonist | HepG2 transfected XRE-luciferase | 4.5 h |  | EC50 | 7.02 µM |
| CC(=O)Nc1ccc2c3c(cccc13)C(=O)N(CCN1CCN(CCCCN3C(=O)CN(/N=C/c4ccc(-c5ccc(Cl)cc5)o4)C3=O)CC1)C2=O | KCNH2 |  |  |  |  | Ki | 0.12 µM |
| COc1ccc(C(=O)c2c[nH]c3ccccc23)cc1 | AHR | reporter gene, agonist |  | concentration not given, unsaturated curve | reference: ITE 10 µM | activity | 8% |
| N=c1ccc2c(-c3ccccc3)c3ccc(N)cc3sc-2c1 | ABCB1 | ATPase activity, activator | sheep brain phosphatidylethanolamine | 30 min, 37 °C | reference: basal activity | Vmax | 6.4 ± 0.6 fold |
| Cc1ncc(CCc2ccc3c(c2)c(=O)c(C(N)=O)cn3-c2ccc(F)cc2)cn1 | ABCB1 |  | MDCK-MDR1 |  | reference: B-A over A-B | efflux ratio | 44 |
| O=C(N[C@H](Cc1ccccc1)C(=O)O)c1sc2cc(F)ccc2c1Cl | CYP2D6 | enzyme activity |  | concentration not given |  | inhibition | no effect |
| C[N+](C)=c1ccc2c(-c3ccccc3)c3cc4c5c(c3[te]c-2c1)CCCN5CCC4 | ABCB1 | ATPase activity, substrate |  | half-maximal ATPase stimulation |  | Km | 4.4 ± 0.8 µM |
| COc1ccc(S(=O)(=O)N2CCCN(CC(=O)Nc3ccc(OC)cc3OC)CC2)cc1 | CYP2D6 | enzyme activity, inhibitor |  |  |  | IC50 | > 20 µM |
| O=C(OC1CCCCC1)c1cccc(C(=O)c2c[nH]c3ccccc23)n1 | AHR | reporter gene, agonist | HepG2 transfected XRE-luciferase | 4.5 h |  | EC50 | 1.2 µM |
| CCCn1c(NCc2ccccc2O)nc2ccccc21 | ALDH1A2 | enzyme activity, inhibitor, NADH absorbance 340 nm |  | pH 7.5, 25 °C, 200 µM NAD+, with: 100 µM propionaldehyde |  | EC50 | 2.7 ± 0.32 µM |

Excerpt of the above:
| Compound | target | assay | test system | conditions | scale | measurement | result |
| --- | --- | --- | --- | --- | --- | --- | --- |
| COc1cnc(C(=O)c2c[nH]c3ccccc23)cn1 | AHR | reporter gene, agonist | HepG2 transfected XRE-luciferase | 4.5 h |  | EC50 | 7.02 µM |
| OCC1Nc2ccc(Cl)cc2C(C#CC2CC2)(C(F)(F)F)O1 (stereo not shown) | Cytochrome P450 2B1 (Cyp2b1, Rattus norvegicus, UniProt P00176) | substrate, cDNA-expressed enzyme with cytochrome b5 |  | 10 µM, 30 min, with: 10 nM enzyme | reference: rat CYP2B1 over human CYP2B6 | metabolite formation ratio | < 2 fold |
